Experimental data pooled from the literature.
Each line is one published result; not all experiments were run side by side. Values joined by “and” are separate records of one study, mostly repeats; a detail may differ.
Target: TGF-beta receptor type-1 (TGFBR1, Homo sapiens, UniProt P36897)

CNC1C[S+]2CC[S+]3CC[S+](C1)[Ru-4]321([N]=C=S)[n]2c3ccc(OC)cc3c3c4c(c5cc(F)c[n+]1c5c32)C(=O)NC4=O (centres unmarked)  remaining binding (KinomeScan; 0.1 µM; baseline: untreated): 100%
Cc1ccc(C(=O)Nc2ccc(CN3CCN(C)CC3)c(C(F)(F)F)c2)cc1C#Cc1cnc2cccnn12  upper asymptote (target engagement, NanoBRET; human cells): 7.4
COc1cc(Nc2nc(C)cc(-c3cnn4nc(OC)ccc34)n2)cc(C(F)(F)F)c1  remaining binding (binding, competition with immobilised ligand; 1 µM): 100%
CNS(=O)(=O)Nc1nccc(Cc2c(C)c3ccc(Oc4ncccc4F)cc3oc2=O)c1F  remaining binding (cell-free assay, competition with immobilised ligand; 10 µM): 90%
COCC12C(=O)NC3C4(C(OC)CC1O)C1CC5(O)C(OC)C(O)C(OC(C)=O)(C1C5OC(=O)c1ccccc1)C3(O)C(OC)C24 (centres unmarked)  remaining activity (kinase activity, inhibitor, ProQinase kinase profiling; 25 µM; baseline: control): 88% and 100%
C=CC(=O)N1Cc2nc(-c3cc(-c4cc(Cl)cnc4Cl)c(F)cc3F)n(-c3ccncn3)c2C1  inhibition (cell-free assay; 1 µM): 4.1%
COc1ccc(NC(=O)Nc2ccc3c(c2)C(=O)N(C(C)CO)CC(C)C(CN(C)Cc2ccc4c(c2)OCO4)O3)cc1 (centres unmarked)  remaining binding (binding, competition with immobilised ligand; 10 µM): 100%
C=CC(=O)N1CCCC(n2c(=O)c3ncccc3n(Cc3ccc(Oc4ccccc4)cc3)c2=O)C1 (centres unmarked)  remaining binding (cell-free assay, competition with immobilised ligand; 1 µM): 95%
CNC(=O)C1CCN(c2cc(C)c(F)cc2NC(=O)c2ccc(-c3cc(O)ccc3C)c(C)c2)CC1  remaining binding (binding, competition with immobilised ligand; 1 µM): 94%
CN1CCN(Cc2ccc(NC(=O)c3cccc(C#Cc4cnc(N)c5ncccc45)c3)cc2C(F)(F)F)CC1  remaining binding (cell-free assay, competition with immobilised ligand; 50 nM): 100%
Cc1nc2c(F)cc(-c3nc(Nc4ccc(CNC(=O)CCCCCCC(=O)NO)cc4)ncc3F)cc2n1C(C)C  inhibition (enzyme activity, inhibitor; 1 µM): 44%
NC(=O)C[C@H]1CCc2sc3ncnc(O[C@H]4CC[C@H](N5CCOCC5)CC4)c3c21  inhibition (enzyme activity, inhibitor; 10 µM): -3%
Cc1ccc(-c2c(/C=C(\C#N)C(=O)NC(C)C)n(CCCO)c3ncnc(N)c23)cc1  remaining binding (cell-free assay, competition with immobilised ligand; 1 µM): 87%
Nc1ncc2c(n1)-c1c([nH]c3ccc(C4=CCOCC4)cc13)CCC2  remaining binding (binding, competition with immobilised ligand; 1 µM): 100%
CNC(=O)C[C@H](Cc1ccc(C#N)cc1)NC(=O)c1cc(-c2ccc(CN[C@H](C)c3ccc(C)cc3)o2)ccc1Cl  activity vs control (enzyme activity, inhibitor; 1 µM): 100%
Cc1cnc2nc1Nc1cccc(c1)COC/C=C/COCc1cc(ccc1OCCN1CCOCC1)N2  remaining binding (binding, competition with immobilised ligand; 0.1 µM): 90%
CN1CCN(Cc2ccc(-c3ccc(CO[C@H]4CCC[C@@H]4NC(=O)c4cc(-c5cnn(C)c5)cnc4N)cc3)cc2)CC1  inhibition (enzyme activity, inhibitor; 0.1 µM): 3%
